Measurements gathered from unrelated publications.
Protocols differ between the studies behind these lines. ± marks the error that the study gave.
Effect on: binding
PTH1R: Parathyroid hormone/parathyroid hormone-related peptide receptor (PTH1R, Homo sapiens, UniProt Q03431)
Sequence of UniProt Q03431 (whole entry, looked up): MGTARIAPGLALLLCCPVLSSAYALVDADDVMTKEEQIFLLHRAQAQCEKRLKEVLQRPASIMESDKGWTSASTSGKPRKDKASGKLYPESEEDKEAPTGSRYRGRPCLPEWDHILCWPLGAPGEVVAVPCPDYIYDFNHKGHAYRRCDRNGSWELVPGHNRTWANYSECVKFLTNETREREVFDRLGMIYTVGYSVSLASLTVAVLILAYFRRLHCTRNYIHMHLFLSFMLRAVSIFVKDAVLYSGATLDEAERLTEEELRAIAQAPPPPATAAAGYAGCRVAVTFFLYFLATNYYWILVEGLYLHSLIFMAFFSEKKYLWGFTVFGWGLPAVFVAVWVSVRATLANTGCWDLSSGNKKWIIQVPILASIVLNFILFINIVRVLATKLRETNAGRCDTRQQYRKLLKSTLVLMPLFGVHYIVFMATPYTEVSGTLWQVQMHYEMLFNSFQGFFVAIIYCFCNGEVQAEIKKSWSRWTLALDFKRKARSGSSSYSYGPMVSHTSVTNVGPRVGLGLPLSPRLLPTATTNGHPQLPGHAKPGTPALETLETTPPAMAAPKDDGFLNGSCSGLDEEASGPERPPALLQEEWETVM
Alpha-mannosidase: Alpha-mannosidase (Canavalia ensiformis, UniProt C0HJB3)
Sequence of UniProt C0HJB3 (whole entry, looked up): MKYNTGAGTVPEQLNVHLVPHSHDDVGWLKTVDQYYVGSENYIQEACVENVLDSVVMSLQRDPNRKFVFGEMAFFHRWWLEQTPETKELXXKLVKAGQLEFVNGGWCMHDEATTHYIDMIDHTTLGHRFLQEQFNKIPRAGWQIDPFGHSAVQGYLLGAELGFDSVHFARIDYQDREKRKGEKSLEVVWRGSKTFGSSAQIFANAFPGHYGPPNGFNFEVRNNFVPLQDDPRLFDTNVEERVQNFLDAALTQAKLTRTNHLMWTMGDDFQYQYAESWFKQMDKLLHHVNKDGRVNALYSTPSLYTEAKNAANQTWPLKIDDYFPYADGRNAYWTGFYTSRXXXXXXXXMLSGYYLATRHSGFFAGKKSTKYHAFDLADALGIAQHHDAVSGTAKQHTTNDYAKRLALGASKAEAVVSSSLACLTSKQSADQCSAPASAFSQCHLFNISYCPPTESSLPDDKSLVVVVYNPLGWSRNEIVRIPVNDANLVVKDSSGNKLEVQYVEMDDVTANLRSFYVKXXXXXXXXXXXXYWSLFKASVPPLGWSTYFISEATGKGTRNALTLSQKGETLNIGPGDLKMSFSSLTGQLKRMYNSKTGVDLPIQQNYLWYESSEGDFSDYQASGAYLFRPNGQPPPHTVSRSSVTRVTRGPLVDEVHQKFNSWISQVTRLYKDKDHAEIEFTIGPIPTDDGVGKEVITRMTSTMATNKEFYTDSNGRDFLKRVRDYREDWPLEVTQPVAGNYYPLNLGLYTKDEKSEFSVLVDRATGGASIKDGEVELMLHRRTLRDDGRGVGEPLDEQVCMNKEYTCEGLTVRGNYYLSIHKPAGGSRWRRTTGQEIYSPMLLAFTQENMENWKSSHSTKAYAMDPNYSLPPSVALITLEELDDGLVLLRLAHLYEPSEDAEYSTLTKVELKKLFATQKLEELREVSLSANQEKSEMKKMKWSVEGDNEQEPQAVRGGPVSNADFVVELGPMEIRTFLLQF
ACTA1: Actin, alpha skeletal muscle (ACTA1, Oryctolagus cuniculus, UniProt P68135)
Sequence of UniProt Q07021 (whole entry, looked up): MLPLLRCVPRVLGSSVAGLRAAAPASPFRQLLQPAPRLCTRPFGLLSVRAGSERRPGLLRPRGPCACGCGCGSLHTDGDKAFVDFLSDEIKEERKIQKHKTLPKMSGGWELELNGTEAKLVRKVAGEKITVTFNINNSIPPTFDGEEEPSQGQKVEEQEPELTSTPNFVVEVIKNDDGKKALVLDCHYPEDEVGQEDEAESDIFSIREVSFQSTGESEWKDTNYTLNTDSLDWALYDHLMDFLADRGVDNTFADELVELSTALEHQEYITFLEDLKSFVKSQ
Sequence of UniProt Q7XKC8 (whole entry, looked up): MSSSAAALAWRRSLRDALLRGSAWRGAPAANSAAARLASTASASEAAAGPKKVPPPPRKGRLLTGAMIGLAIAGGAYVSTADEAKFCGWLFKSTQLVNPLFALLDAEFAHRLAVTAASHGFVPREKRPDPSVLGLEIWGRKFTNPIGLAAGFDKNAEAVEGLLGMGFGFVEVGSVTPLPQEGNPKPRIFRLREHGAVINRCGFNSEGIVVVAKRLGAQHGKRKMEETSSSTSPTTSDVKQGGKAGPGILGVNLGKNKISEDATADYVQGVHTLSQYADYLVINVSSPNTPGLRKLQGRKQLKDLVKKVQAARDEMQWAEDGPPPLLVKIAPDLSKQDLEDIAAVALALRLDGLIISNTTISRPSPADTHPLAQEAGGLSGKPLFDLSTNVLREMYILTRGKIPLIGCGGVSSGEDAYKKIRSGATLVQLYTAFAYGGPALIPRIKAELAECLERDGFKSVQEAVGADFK

For CN1C[C@H](c2cccc(C(F)(F)F)c2)[C@@H](C(=O)Nc2ccccc2F)C1=O, the kon was 6.16e+06 M⁻¹ s⁻¹ (PYRD (Oryza sativa, UniProt Q7XKC8); SPR).
CSCC[C@H](NC(=O)[C@H](CC(C)C)NC(=O)[C@H](CCC(N)=O)NC(=O)[C@H](Cc1c[nH]cn1)NC(=O)[C@H](CCC(=O)O)NC(=O)[C@H](CO)NC(=O)[C@@H](NC(=O)[C@@H](N)CO)C(C)C)C(=O)N[C@@H](Cc1c[nH]cn1)C(=O)N[C@@H](CC(N)=O)C(=O)N[C@@H](CC(C)C)C(=O)NCC(=O)N[C@@H](CCCCN)C(=O)N[C@@H](Cc1c[nH]cn1)C(=O)N[C@@H](CC(C)C)C(=O)N[C@@H](CC(N)=O)C(=O)N[C@@H](CO)C(=O)N[C@@H](CCSC)C(=O)N[C@@H](CCC(=O)O)C(=O)N[C@@H](CCCNC(=N)N)C(=O)N[C@H](C(=O)N[C@@H](CCC(=O)O)C(=O)N[C@@H](Cc1c[nH]c2ccccc12)C(=O)N[C@@H](CC(C)C)C(=O)N[C@@H](CCCNC(=N)N)C(=O)N[C@@H](CCCCN)C(=O)N[C@@H](CCCCN)C(=O)N[C@@H](CC(C)C)C(=O)N[C@@H](CCC(N)=O)C(=O)N[C@@H](CC(=O)O)C(=O)N[C@H](C(=O)N[C@@H](Cc1c[nH]cn1)C(=O)N[C@@H](CC(N)=O)C(=O)N[C@@H](Cc1ccccc1)C(=O)N[C@@H](CCCCNC(=O)c1ccc2c(c1)C1(OC2=O)c2ccc(N(C)C)cc2Oc2cc(N(C)C)ccc21)C(N)=O)C(C)C)C(C)C has a kon of 760000 ± 100000 M⁻¹ s⁻¹ (PTH1R; NanoBRET; pH 7.5, HEPES buffer).
With O=c1c2ccccc2nc2n1CCC2O (stereo not drawn) the kon was 3.91 M⁻¹ s⁻¹ (Alpha-mannosidase; surface plasmon resonance; 25 °C).
For CC(C)[C@H](NC(=O)[C@H](CCCCN)NC(=O)[C@H](C)NC(=O)[C@H](CCCCN)NC(=O)CNC(=O)[C@H](CCCNC(=N)N)NC(=O)[C@@H](NC(=O)[C@H](CCCCN)NC(=O)[C@@H](N)CO)[C@@H](C)O)C(=O)N[C@H](C(=O)NCC(=O)N[C@@H](CS)C(=O)N[C@@H](Cc1c[nH]c2ccccc12)C(=O)N[C@@H](CCCCN)C(=O)O)[C@@H](C)O, the kon was 1570 M⁻¹ s⁻¹ (ACTA1; SPR; pH 7).
For C[C@@H](O)[C@@H]1NC(=O)[C@H](CCCNC(=N)N)NC(=O)[C@H](CCCCN)NC(=O)[C@H](CC(N)=O)NC(=O)CNC(=O)[C@@H](N)C[Se][Se]C[C@@H](C(=O)O)NC(=O)CNC(=O)[C@H](CCCNC(=N)N)NC1=O, the kon was 30900 M⁻¹ s⁻¹ (Complement component 1 Q subcomponent-binding protein, mitochondrial (C1QBP, Homo sapiens, UniProt Q07021); SPR).
With CC[C@H](C)[C@H](NC(=O)[C@H](CCC(=O)O)NC(=O)[C@H](CO)NC(=O)[C@@H](NC(=O)[C@@H](N)CO)C(C)C)C(=O)N[C@@H](CCC(N)=O)C(=O)N[C@@H](CC(C)C)C(=O)N[C@@H](CCSC)C(=O)N[C@@H](Cc1c[nH]cn1)C(=O)N[C@@H](CC(N)=O)C(=O)N[C@@H](CC(C)C)C(=O)NCC(=O)N[C@@H](CCCCN)C(=O)N[C@@H](Cc1c[nH]cn1)C(=O)N[C@@H](CC(C)C)C(=O)N[C@@H](CC(N)=O)C(=O)N[C@@H](CO)C(=O)N[C@@H](CCSC)C(=O)N[C@@H](CCC(=O)O)C(=O)N[C@@H](CCCNC(=N)N)C(=O)N[C@H](C(=O)N[C@@H](CCC(=O)O)C(=O)N[C@@H](Cc1c[nH]c2ccccc12)C(=O)N[C@@H](CC(C)C)C(=O)N[C@@H](CCCNC(=N)N)C(=O)N[C@@H](CCCCN)C(=O)N[C@@H](CCCCN)C(=O)N[C@@H](CC(C)C)C(=O)N[C@@H](CCC(N)=O)C(=O)N[C@@H](CC(=O)O)C(=O)N[C@H](C(=O)N[C@@H](Cc1c[nH]cn1)C(=O)N[C@@H](CCCCNC(=O)c1ccc2c(c1)C1(OC2=O)c2ccc(N(C)C)cc2Oc2cc(N(C)C)ccc21)C(=O)N[C@@H](Cc1ccccc1)C(N)=O)C(C)C)C(C)C the kon was 400000 ± 60000 M⁻¹ s⁻¹ (PTH1R; NanoBRET; HEK293 stably expressing receptor; room temperature, 0.02% sodium azide, added: 5 µM coelenterazine h).
CC1=CC(=O)CC(C)(C)C1(O)C=CC(C)O (stereo not drawn) gave a kon of 4.76 M⁻¹ s⁻¹ (Alpha-mannosidase; surface plasmon resonance; 25 °C).
With CC[C@H](C)[C@H](NC(=O)[C@H](CCC(=O)O)NC(=O)[C@H](CO)NC(=O)[C@@H](N)C(C)C)C(=O)N[C@@H](CCC(N)=O)C(=O)N[C@@H](CC(C)C)C(=O)N[C@@H](CCSC)C(=O)N[C@@H](Cc1c[nH]cn1)C(=O)N[C@@H](CC(N)=O)C(=O)N[C@@H](CC(C)C)C(=O)NCC(=O)N[C@@H](CCCCN)C(=O)N[C@@H](Cc1c[nH]cn1)C(=O)N[C@@H](CC(C)C)C(=O)N[C@@H](CC(N)=O)C(=O)N[C@@H](CO)C(=O)N[C@@H](CCSC)C(=O)N[C@@H](CCC(=O)O)C(=O)N[C@@H](CCCNC(=N)N)C(=O)N[C@H](C(=O)N[C@@H](CCC(=O)O)C(=O)N[C@@H](Cc1c[nH]c2ccccc12)C(=O)N[C@@H](CC(C)C)C(=O)N[C@@H](CCCNC(=N)N)C(=O)N[C@@H](CCCCN)C(=O)N[C@@H](CCCCN)C(=O)N[C@@H](CC(C)C)C(=O)N[C@@H](CCC(N)=O)C(=O)N[C@@H](CC(=O)O)C(=O)N[C@H](C(=O)N[C@@H](Cc1c[nH]cn1)C(=O)N[C@@H](CC(N)=O)C(=O)N[C@@H](Cc1ccccc1)C(=O)N[C@@H](CCCCNC(=O)c1ccc2c(c1)C1(OC2=O)c2ccc(N(C)C)cc2Oc2cc(N(C)C)ccc21)C(N)=O)C(C)C)C(C)C the kon was 250000 ± 170000 M⁻¹ s⁻¹ (PTH1R; NanoBRET; HEK293 stably expressing receptor; room temperature, 0.02% sodium azide, added: 5 µM coelenterazine h).
CC(C)[C@H](NC(=O)[C@H](CCCCN)NC(=O)[C@H](C)NC(=O)[C@H](CCCCN)NC(=O)CNC(=O)[C@H](CS)NC(=O)[C@@H](NC(=O)[C@H](CCCCN)NC(=O)[C@@H](N)CO)[C@@H](C)O)C(=O)N[C@H](C(=O)NCC(=O)N[C@@H](CCCNC(=N)N)C(=O)N[C@@H](Cc1c[nH]c2ccccc12)C(=O)N[C@@H](CCCCN)C(=O)O)[C@@H](C)O has a kon of 1450 M⁻¹ s⁻¹ (ACTA1; SPR; pH 7).

For quick reference, copied from above:
CC(C)[C@H](NC(=O)[C@H](CCCCN)NC(=O)[C@H](C)NC(=O)[C@H](CCCCN)NC(=O)CNC(=O)[C@H](CS)NC(=O)[C@@H](NC(=O)[C@H](CCCCN)NC(=O)[C@@H](N)CO)[C@@H](C)O)C(=O)N[C@H](C(=O)NCC(=O)N[C@@H](CCCNC(=N)N)C(=O)N[C@@H](Cc1c[nH]c2ccccc12)C(=O)N[C@@H](CCCCN)C(=O)O)[C@@H](C)O has a kon of 1450 M⁻¹ s⁻¹ (ACTA1; SPR; pH 7).
